{"data": "Measurements collected from several papers", "note": "Lines come from different studies, so protocols differ. Several values in a cell are separate wells, animals, samples, runs or records. ± gives the spread as reported.", "sequence of UniProt P00520 (whole entry, looked up)": "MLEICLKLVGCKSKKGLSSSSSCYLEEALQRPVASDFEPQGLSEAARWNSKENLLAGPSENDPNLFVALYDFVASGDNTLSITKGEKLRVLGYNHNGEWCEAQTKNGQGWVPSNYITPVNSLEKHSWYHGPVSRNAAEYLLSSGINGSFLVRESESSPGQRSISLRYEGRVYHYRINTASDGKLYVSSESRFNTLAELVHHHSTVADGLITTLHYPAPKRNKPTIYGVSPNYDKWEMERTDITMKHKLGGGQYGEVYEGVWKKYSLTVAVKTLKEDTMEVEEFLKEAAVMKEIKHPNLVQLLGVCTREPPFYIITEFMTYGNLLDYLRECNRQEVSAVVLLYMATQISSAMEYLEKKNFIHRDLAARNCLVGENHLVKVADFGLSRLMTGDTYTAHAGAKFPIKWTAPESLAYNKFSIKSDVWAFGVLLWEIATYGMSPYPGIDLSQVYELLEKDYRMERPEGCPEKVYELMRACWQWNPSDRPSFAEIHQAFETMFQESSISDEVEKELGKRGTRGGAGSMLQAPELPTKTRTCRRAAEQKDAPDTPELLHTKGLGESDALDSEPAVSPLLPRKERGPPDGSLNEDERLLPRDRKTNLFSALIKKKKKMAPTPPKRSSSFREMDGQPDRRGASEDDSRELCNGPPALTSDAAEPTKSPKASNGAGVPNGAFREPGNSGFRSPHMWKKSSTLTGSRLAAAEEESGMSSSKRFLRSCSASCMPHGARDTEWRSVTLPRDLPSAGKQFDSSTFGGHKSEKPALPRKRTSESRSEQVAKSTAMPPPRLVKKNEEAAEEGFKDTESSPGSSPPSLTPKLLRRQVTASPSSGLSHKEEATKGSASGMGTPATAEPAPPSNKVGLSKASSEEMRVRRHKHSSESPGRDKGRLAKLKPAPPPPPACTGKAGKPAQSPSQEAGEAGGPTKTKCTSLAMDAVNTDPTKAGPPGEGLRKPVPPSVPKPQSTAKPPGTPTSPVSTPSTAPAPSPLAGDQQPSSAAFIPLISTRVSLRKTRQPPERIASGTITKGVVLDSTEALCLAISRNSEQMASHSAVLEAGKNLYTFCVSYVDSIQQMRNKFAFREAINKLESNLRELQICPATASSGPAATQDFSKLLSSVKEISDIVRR"}
{"Compound": "CC(C)(C)C(=O)OCOP(=O)(OCOC(=O)C(C)(C)C)C1CCCN(O)C1=O (stereo not shown)", "tested on": "UACC-62", "endpoint": "CC50", "value": "> 100 µM"}
{"Compound": "O=C1NC(=O)c2c1c1cc(F)c[n+]3c1c1c2c2cc(O)ccc2[n]1[Ru-4]312([N]=C=S)[S+]3CC[S+]1CC[S+]2CC3 (stereo not shown)", "tested on": "Abl1 (Mus musculus, UniProt P00520)", "assay": "enzyme activity", "setting": "100 nM, mouse enzyme, with: 10 µM ATP", "how to read": "baseline: untreated", "endpoint": "remaining activity", "value": "96%"}
{"Compound": "CC(C)CC(C(=O)N1CC2(CC1C#N)C(=O)Nc1ccccc12)N(C)C(=O)c1cc2c(F)cc(F)c(F)c2[nH]1 (stereo not shown)", "tested on": "Human coronavirus 229E", "assay": "cytopathic effect", "test system": "MRC5", "setting": "16.91 nM", "endpoint": "inhibition", "value": "97.9%"}
{"Compound": "Cc1cc(Oc2nc(N3CC[C@@H](c4ccncc4)C3)ncc2F)[nH]n1", "tested on": "SK-MEL-28", "assay": "cell proliferation", "test system": "skin cancer", "endpoint": "IC50", "value": "> 100 µM"}
{"Compound": "CC(=O)NCSC[C@H](NC(=O)[C@@H]1CCCN1C(=O)[C@H](C)NC(=O)[C@@H](NC(=O)CNC(=O)[C@@H](NC(=O)[C@H](Cc1c[nH]c2ccccc12)NC(=O)[C@H](C)NC(=O)CNC(=O)[C@H](CO)NC(=O)[C@H](C)NC(=O)[C@@H]1CCCN1C(=O)[C@H](Cc1c[nH]c2ccccc12)NC(=O)[C@H](C)NC(=O)[C@H](C)NC(=O)[C@@H](N)Cc1ccc(O)cc1)[C@@H](C)O)[C@@H](C)O)C(=O)N[C@@H](CO)C(=O)N[C@@H](C)C(=O)NCC(=O)N[C@H](C(=O)NCCOCCOCCOCCOCCOCCOCCOCCOCCOCCOCCOCCOCCC(=O)N[C@@H](CS)C(N)=O)[C@@H](C)O", "tested on": "PANC-1 pancreatic cancer", "assay": "cell binding, phage binding, item: output/input phage", "setting": "10 min, 37 °C", "how to read": "baseline: control phage", "endpoint": "selectivity ratio", "value": "44 ± 12"}
{"Compound": "O=C(C[Se]C(=O)c1ccco1)Nc1cccc(C(F)(F)F)c1", "tested on": "NCI60 prostate subpanel (PC-3, DU-145)", "assay": "cell growth, inhibitor", "setting": "five-dose", "endpoint": "GI50", "value": "2.58 µM"}
{"Compound": "CC(C)C[C@H](NC(=O)[C@H](CC(=O)O)NC(=O)CNC(=O)[C@@H](N)CCCNC(=N)N)C(=O)N[C@@H](C)C(=O)N[C@H](C(=O)N[C@@H](CC(C)C)C(=O)N[C@@H](CCCNC(=N)N)C(=O)N[C@@H](CCC(N)=O)C(=O)N[C@@H](CC(C)C)C(=O)N[C@@H](C)C(=O)N[C@@H](CCC(N)=O)C(=O)N[C@@H](CCC(=O)O)C(=O)N[C@@H](CC(=O)O)C(=O)NCC(=O)N[C@H](C(=O)N[C@H](C(=O)NCC(=O)N[C@H](C(=O)N[C@@H](CCCNC(=N)N)C(=O)NCCOCCOCCOCCOCCOCCOCCOCCOCCOCCOCCOCCOCCC(=O)N[C@@H](CS)C(N)=O)C(C)C)C(C)C)C(C)C)[C@@H](C)O", "tested on": "H1648", "assay": "phage binding", "setting": "10 min, 37 °C", "how to read": "baseline: control phage", "endpoint": "selectivity ratio", "value": "230 ± 99"}
{"Compound": "O=C(C[Se]C(=O)c1cc2ccccc2s1)Nc1cccc(C(F)(F)F)c1", "tested on": "NCI60 ovarian subpanel", "assay": "cytotoxicity, inhibitor", "setting": "five-dose", "endpoint": "CC50", "value": "8.08 µM"}
{"Compound": "O=C1NC2(CC2)COc2ncc(F)cc2[C@H]2COCCN2c2ccn3ncc1c3n2", "test system": "Sprague-Dawley rat, female, kidneys", "setting": "oral, 10 mg/kg/day, 4 weeks, end of treatment", "endpoint": "organ-to-brain weight ratio", "value": "107 ± 10.3%"}
{"Compound": "COc1ccccc1-c1ccncc1C(=O)Nc1nnc(OCc2ccc(Cl)cc2)s1", "tested on": "DLD-1 BRCA2-/-", "setting": "4 µM, mean of 3 replicates", "how to read": "baseline: untreated", "endpoint": "colony survival", "value": "17.6%"}
{"Compound": "CC(C)[C@H](NC(=O)[C@H](CCCNC(=N)N)NC(=O)[C@@H]1CCCN1C(=O)[C@@H](NC(=O)[C@H](C)NC(=O)[C@H](Cc1ccc(O)cc1)NC(=O)[C@H](CCC(N)=O)NC(=O)[C@H](CCCCN)NC(=O)[C@H](CCCNC(=N)N)NC(=O)[C@@H]1CCCN1C(=O)[C@H](CCC(=O)O)NC(=O)[C@@H](NC(=O)[C@H](C)N)[C@@H](C)O)[C@@H](C)O)C(=O)N[C@@H](Cc1ccccc1)C(=O)N[C@@H](Cc1c[nH]c2ccccc12)C(=O)N[C@H](C(=O)N[C@@H](CC(=O)O)C(=O)N[C@@H](C)C(=O)N1CCC[C@H]1C(=O)NCC(=O)NCCOCCOCCOCCOCCOCCOCCOCCOCCOCCOCCOCCOCCC(=O)N[C@@H](CS)C(N)=O)[C@@H](C)O", "tested on": "HCC15", "assay": "phage binding", "how to read": "baseline: targeting over control phage", "endpoint": "selectivity ratio", "value": "44 ± 18"}
{"Compound": "O=C(C[Se]C(=O)c1cccs1)Nc1cccc(C(F)(F)F)c1", "tested on": "NCI60 prostate subpanel (PC-3, DU-145)", "assay": "cell growth", "setting": "10 µM, 48 h, one-dose", "endpoint": "mean growth percent", "value": "-85.3%"}
{"Compound": "COc1ccccc1-c1n[nH]c2nc(NC3CCN(C(=O)Cc4ccc(F)cc4F)CC3)ncc12", "assay": "bead binding, competition bead pull-down, item: LINJ.35.1820", "test system": "Leishmania donovani axenic amastigote extract", "setting": "10 µM", "how to read": "baseline: vehicle", "endpoint": "relative abundance", "value": 1}
{"Compound": "CC(C)CC(O)(CC(C)C)c1cn(C(=O)N2CCCC2)nn1", "tested on": "mouse T-cells", "assay": "SILAC proteomics, item: S100A4", "setting": "1 nM, 6 h, unit not given", "how to read": "baseline: DMSO", "endpoint": "protein level", "value": 1.01}
{"Compound": "O=C(O)c1ccc(-c2nc(-c3ccccc3Cl)c3sccn23)cc1", "tested on": "K562", "assay": "megakaryocyte differentiation, flow cytometry", "setting": "0.1 mM, 48 h", "how to read": "baseline: untreated", "endpoint": "CD61 fluorescence intensity", "value": "1.63 fold change and 1.17 fold change"}
{"Compound": "O=C(C[Se]C(=O)c1ccccc1)Nc1cccc(C(F)(F)F)c1", "tested on": "NCI60 NSCLC subpanel", "assay": "NCI60 five-dose screen", "endpoint": "CC50", "value": "11.3 µM"}
{"Compound": "CS(C)(=O)=Nc1ccc(-c2ccc(-c3nc4cc(O[C@@H]5CO[C@H]6[C@@H]5OC[C@H]6O)[nH]c4cc3F)cc2)cc1", "tested on": "MET (Homo sapiens, UniProt P08581, Y1230D)", "assay": "enzyme activity, inhibitor", "setting": "10 µM", "endpoint": "inhibition", "value": "-45%"}
{"Compound": "CSCC[C@H](NC(=O)[C@@H](NC(=O)[C@H](CCC(N)=O)NC(=O)[C@H](CO)NC(=O)[C@@H](N)C(C)C)[C@@H](C)O)C(=O)N[C@@H](CCCNC(=N)N)C(=O)N[C@@H](CCC(N)=O)C(=O)N[C@H](C(=O)N[C@@H](C)C(=O)N[C@H](C(=O)N1CCC[C@H]1C(=O)N[C@@H](CC(C)C)C(=O)N[C@@H](CC(C)C)C(=O)N[C@@H](Cc1c[nH]c2ccccc12)C(=O)N[C@@H](Cc1ccccc1)C(=O)N[C@@H](Cc1c[nH]c2ccccc12)C(=O)N[C@H](C(=O)NCC(=O)N[C@@H](CO)C(=O)N[C@@H](CC(C)C)C(=O)NCCOCCOCCOCCOCCOCCOCCOCCOCCOCCOCCOCCOCCC(=O)N[C@@H](CS)C(N)=O)[C@@H](C)O)C(C)C)[C@@H](C)O", "tested on": "H1264 lung adenocarcinoma", "assay": "cell binding, phage binding, item: output/input phage", "setting": "10 min, 37 °C", "how to read": "baseline: control phage", "endpoint": "selectivity ratio", "value": "2.6 ± 0.69"}
{"Compound": "COc1ccccc1-c1n[nH]c2nc(N[C@H]3CC[C@H](NS(=O)(=O)CC(C)C)CC3)ncc12", "assay": "bead binding, competition bead pull-down, item: LINJ.23.1460", "test system": "Leishmania donovani extract", "setting": "10 µM", "how to read": "baseline: vehicle", "endpoint": "relative abundance", "value": 0.93}
{"note": "Some of these lines once more:"}
{"Compound": "CC(=O)NCSC[C@H](NC(=O)[C@@H]1CCCN1C(=O)[C@H](C)NC(=O)[C@@H](NC(=O)CNC(=O)[C@@H](NC(=O)[C@H](Cc1c[nH]c2ccccc12)NC(=O)[C@H](C)NC(=O)CNC(=O)[C@H](CO)NC(=O)[C@H](C)NC(=O)[C@@H]1CCCN1C(=O)[C@H](Cc1c[nH]c2ccccc12)NC(=O)[C@H](C)NC(=O)[C@H](C)NC(=O)[C@@H](N)Cc1ccc(O)cc1)[C@@H](C)O)[C@@H](C)O)C(=O)N[C@@H](CO)C(=O)N[C@@H](C)C(=O)NCC(=O)N[C@H](C(=O)NCCOCCOCCOCCOCCOCCOCCOCCOCCOCCOCCOCCOCCC(=O)N[C@@H](CS)C(N)=O)[C@@H](C)O", "tested on": "PANC-1 pancreatic cancer", "assay": "cell binding, phage binding, item: output/input phage", "setting": "10 min, 37 °C", "how to read": "baseline: control phage", "endpoint": "selectivity ratio", "value": "44 ± 12"}
{"Compound": "O=C(C[Se]C(=O)c1ccco1)Nc1cccc(C(F)(F)F)c1", "tested on": "NCI60 prostate subpanel (PC-3, DU-145)", "assay": "cell growth, inhibitor", "setting": "five-dose", "endpoint": "GI50", "value": "2.58 µM"}
